Experimental data from different studies.
Parts stem from different laboratories: compare values within a part only.

Block 1
Target: RNA binding protein fox-1 homolog 2, RRM domain, GST-SBP tag (RBFOX2, Homo sapiens, UniProt O43251-10, residues 100-194)
Technique: RNA Bind-n-Seq
Form: RNA
Matrix: in vitro
Concentration: 365 nM
Setting: natural RNA segment, single round, ends assumed
Baseline: no-protein control
Direction: higher = stronger binding
Constant ends, left off below: GGGAGUUCUACAGUCCGACGAUC … UGGAAUUCUCGGGUGCCAA
Construct (chain): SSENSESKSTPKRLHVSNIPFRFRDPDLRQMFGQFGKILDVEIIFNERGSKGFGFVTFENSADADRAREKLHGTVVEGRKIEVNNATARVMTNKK
| Sequence | RBNS enrichment (R) |
| --- | --- |
| AAUACGUGGCAUUAUUCUUUUUUGGAUUUCUCAUUUAUGGAAGGCUAACCCUCUGUUGACUGUAAGCCUUUUGGUUUGGGCUGUAUUGAAAUCCUUUCUAAAUUGCAUGA | 20 |
| AGGGCUGAGGACCCCUCCAGGCCCCUCUCUCCUGGAAGUGCUGCAUAUGCCCCUGUGCCCAGUGGUUGAUGAUACCACCACCACCUGCCUACCCAUGGGCCCAAGUUUCU | 0.637 |
| UUGAACCUAACCUGCAUCCCAUUUCCAGCCUCUUUUCAAGCUGAGAAAAAAACAAAAAACACGUUUGAUACUUUGUACAUCAUAUGCAUCUUAUUUAAAGGGAUACUUUU | 0.885 |
| CUCCGGAAGGCUGGGAGGAGGUGGGCUAGAUGAUCUUUGGAGCUUAAGGAGUCCCAGCCCUUUCUCUGAUGCCACCACCUGAACCCUGCUCCCUCGUGGGCCAGUGAAAA | 0.691 |
| UGUGCAUUUGUCAGUCUGGUAGAGUGGACUGGAGGUUGUCAAGUCUGCAUUGUAGUCUGAGUGUGCCACAUGUUAGCAAUGUGACCUUGGGCCACACACCUCUUCUGGGC | 0.981 |
| CCGCCAGUCCAUACGGUGCUGUCACUGCCCAUCUUCGGUGACACCCUGGGGUGAGGUGCUCAGCACCUUCCUCUCGAGGAGCCACAUUUUCCUCCUUUGUGUUAGGGGAC | 0.325 |
| GAUAAAAGCAUCUGCAGGUCCCUCCAAGACGAGAAGAGCAACAUCAUGCUCUUUGCUUCUGUCUAUGUGGAAAUCUCCGUUUGCAGCCAAAAUCUGGGGGCUGCCACUGU | 0.399 |
| GUUACCCUCUAUUCUUUCUAGUGCUUUCAGUCAGUGGCAACACAUAGGCCCCUUGGACCGUGGGGAUGGCGGCCCUGAGAUUCUGUCAGUGGGACCACCCUGGGCCUCCU | 0.673 |
| AGGACUGGCCCAGGGAGGAGGAAGCCAGCAGCACACCUGGGGAAUGGGGUCCCGGCCGGGAGGCUUGGCCUCUGGGCGACCUCGUCCUGUUUUUUUUGUUUGUUUGUUUG | 0.955 |
| UAUCUAGCUGCAAAGCCUGGCUUUGAUUUGAAAUUUUGUAAAAAUUUCAUGGCACCCAAGGUUUCUGAUUCUGACCCAGCAGUGGUCCUGAAGAGAGCUGAUGGCAAGUC | 0.413 |

Block 2
Target: Centromere-binding protein 1, full length, N-terminal tag (CBF1, Saccharomyces cerevisiae, UniProt P17106, residues 1-351)
UniProt P17106, sequence (whole entry, looked up): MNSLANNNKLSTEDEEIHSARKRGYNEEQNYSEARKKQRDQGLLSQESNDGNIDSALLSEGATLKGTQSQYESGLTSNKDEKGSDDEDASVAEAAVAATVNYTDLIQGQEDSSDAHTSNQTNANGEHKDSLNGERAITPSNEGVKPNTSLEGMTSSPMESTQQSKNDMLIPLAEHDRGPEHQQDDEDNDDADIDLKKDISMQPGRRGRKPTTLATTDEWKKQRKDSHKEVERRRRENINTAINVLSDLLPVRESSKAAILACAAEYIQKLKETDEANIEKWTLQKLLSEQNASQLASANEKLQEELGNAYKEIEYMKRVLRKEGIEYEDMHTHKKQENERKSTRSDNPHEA
Technique: protein-binding microarray
Form: double-stranded DNA, one strand shown
Matrix: in vitro
Concentration: 0.8 µM
Setting: whole 60-bp probe, no competitor
Direction: higher = stronger binding
Constant ends, left off below: … GTCTTGATTCGCTTGACGCTGCTG
| Sequence | fluorescence intensity |
| --- | --- |
| TGTACGAAGCTATATGGGGTGACTATAGTAGTTAGG | 539 a.u. |
| GAAGGTTGAAAAGAGCACACCTGAGTCATCTGATAG | 635 a.u. |
| CCTAACTACTATATTCATGTGGTATAGCTTCGTACA | 578 a.u. |
| CTAAACAATTACCAACATGTGGTACATATTGGATTC | 1080 a.u. |
| CCTAACTACTATAGACACGCGATATAGCTTCGTACA | 565 a.u. |
| GAAGAACGTTGGAGCAGCGTCACGGGTGCGCAGTAG | 1320 a.u. |
| GAACTACCAAAAGATCACCTGAGGATAATTTTTTAG | 1090 a.u. |
| TGTACGAAGCTATAGCACGTTGATATAGTAGTTAGG | 632 a.u. |

Block 3
Target: RING finger protein unkempt homolog, zinc fingers 1-6, GST-SBP tag (UNK, Homo sapiens, UniProt Q9C0B0, residues 30-357)
UniProt Q9C0B0, sequence (30-357, looked up): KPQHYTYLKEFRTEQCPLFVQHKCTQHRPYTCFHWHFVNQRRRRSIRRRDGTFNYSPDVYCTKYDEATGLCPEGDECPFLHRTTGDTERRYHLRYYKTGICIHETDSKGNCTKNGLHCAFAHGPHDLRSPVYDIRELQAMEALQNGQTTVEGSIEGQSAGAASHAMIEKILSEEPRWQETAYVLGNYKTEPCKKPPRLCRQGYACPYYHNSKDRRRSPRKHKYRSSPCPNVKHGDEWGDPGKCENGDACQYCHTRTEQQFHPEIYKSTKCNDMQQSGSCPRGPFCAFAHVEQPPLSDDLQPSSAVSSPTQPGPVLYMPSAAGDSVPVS
Technique: RNA Bind-n-Seq
Form: RNA
Matrix: in vitro
Concentration: not given
Setting: RNA with constant flanks, ends assumed
Baseline: input RNA pool
Direction: higher = stronger binding
Constant ends, left off below: GGGAGUUCUACAGUCCGACGAUC … CAACAGAGGAUUGAGCAUCA
| Sequence | bound/input enrichment [ratio] |
| --- | --- |
| CCUACUAUAAACAACUCAGGGCAGUAUUCUCGAUAUCCUUACAGUAACCUAAAUCAGGGAUCCGUUAACAAUACAGGGAUGAAUCAAAAUUUAGGCCUUACAAAUAAUACUCCAAUGAAU | 1.11 |
| UUAAGAAAAAUGCCUCACAUUAAACAUGUGGAUCUAAGGUUGAACGUAAUUAGGAAGCUGACCGCAGAUGAAGUGGACUUUCUACAGCAUGUUACUCAGCUUGACCUACGAGACAAUAAG | 0.192 |
| UUGGAGGAAGUAGGGCAGGGCCCUUAUCUGGAAAGAAGUUUGGAAACCCUGGGGAGAAAUCCGUUAAAAAGAAGUGGAAUCUUGAUGAGCUGCCUAAAUUUGAGAAGAAUUUUUAUCAAG | 0.164 |
| GACUUGGUACACUUUGAUUUUAUGGACCCACCAGCUCCUGAAACUCUGAUGAGAGCCCCCGAACUUUUGAAUUAUUUGGCUGCUUUAAAUGAUGAUGGAGAUCUGACUGAAUUGGGAUCC | 0.516 |
| UAACUUAUUUUUCGUUAAAGUUUGACUGAAACACGCUUCUACCAAAUACAGUAUAAAUAAUCCGGCCGUCUUAAUGCCUUUCCUAUUUUUUUUUCCUUUUCACACAAAAUGUACACAAAG | 1.67 |
| UGGACGAACCAUAAAUUCAACGUGACUGGCACCCCAGAACAAUAUGUACCUUAUUCUACCACCCGAAAGAAGAUUCAGGAGUGGAUCCCACCUUCAACACCUUACAAGUAAAGACAAUGA | 0.464 |
| GAUCCAGGCAGUAAAGAUCCAGAAGAAGAUUACCCCAAAUUUGGACUUUUGGAUCAGGACCUCCGUAACAUUGGUCCUGCUUAUGACAACCAAAAACAGAGCAGUGCUGUGUCUACUAGU | 0.231 |

Single results of other studies
| Molecule | target | test | test system | setting | scale | quantity | result |
| --- | --- | --- | --- | --- | --- | --- | --- |
| PhoQ, residues 284 288 289 292 302 303 TVTVVA | PhoP, residues 12 14 15 18 19 GHCSL (Escherichia coli, UniProt P23836) | Sort-seq, item: YFP reporter | E. coli | PhoQ-PhoP variant library, together with: 10 µM Mg2+ | baseline: high Mg2+ state, higher = stronger signaling | fold induction | 9.45 |
